Assay results gathered from unrelated publications.
Each line is one published result; not all experiments were run side by side. ± gives the spread as reported.

SMILES	test	test system	conditions	scale	endpoint	result
Cc1c(-c2ccc(N3CCc4cccc(C(=O)Nc5nc6ccccc6s5)c4C3)nc2C(=O)O)cnn1CC12CC3(C)CC(C)(C1)CC(OCCNCC[C@H](O)CO)(C3)C2		beagle dog, male, anaesthetised	intravenous infusion, 0.3 mg/kg/min, 105 min	baseline: vehicle	QRS duration change	-2 ms
C[C@@H](NC(=O)N1C(=O)[C@H](Cc2ccnc(N)c2)[C@H]1C(=O)O)C1CCCCC1	UPLC-MS/MS	healthy adult Chinese volunteers, plasma	continuous intravenous infusion, 1.0 mg/kg/h, day 1 of 5-day infusion, geometric mean		Css	2990 ng/mL
C=CC(=O)N1CCC([C@@H]2CCNc3c(C(N)=O)c(-c4ccc(Oc5ccccc5)cc4)nn32)CC1		rat plasma	2 ng/mL, 3 h, room temperature	baseline: nominal concentration	stability relative error	-1.3%
NC1(C(=O)N[C@@H](CCO)c2ccc(Cl)cc2)CCN(c2nc[nH]c3nccc2-3)CC1		metastatic CRPC patients	dose not given, grade 3 to 4, treatment-related, all doses, together with: enzalutamide 160 mg daily		incidence of Amnesia	0%
CCNCCCNC/C=C\CNCCCNCC	LC-MS/MS	human cancer patients, plasma	intravenous infusion 60 min, 200 mg, median, cycle 1		elimination rate constant	5.07 h⁻¹
C[C@H]1CN(C(=O)CC#N)[C@]12CCN(c1ncnc3[nH]ccc13)C2		human	oral, dose not given, all compound groups		participants withdrawn due to AEs	0%
Cn1cc(Nc2nccc(-c3ccc4c(c3)CN(C3COC3)CC[C@H]4NC(=O)c3cn(C(C)(C)C)nn3)n2)cn1		human, whole blood	50 mg twice daily, day 7	baseline: pre-dose baseline	monocyte count change	26.6%
CC[C@H]1CC[C@H](c2ccc(-c3ccc(F)c(F)c3)cc2)CC1		rat, placenta	10 ng/mL in perfusate, low dose, mixture of 21 LCMs		placental accumulation	2.17 ± 3.97 ng/g
CN1CCN(c2cccc3c2CCN(C(=O)/C=C/c2c(-n4cnnn4)ccc(Cl)c2F)[C@@H]3C(=O)Nc2ccc(C(=O)O)cc2)C(=O)C1		healthy human subjects	intravenous infusion, 1 mg/h, 5 days		discontinuations due to adverse events	0%
Cn1nc([N+](=O)[O-])nc1Oc1ccccc1C(=O)N1CCOCC1		aqueous buffer	pH 7.4		solubility	1640 µg/mL
CNCc1ccc(-c2[nH]c3cc(F)cc4c3c2CCNC4=O)cc1		human patients	oral, 600 mg twice daily, grade 1		vomiting incidence	30.8%
OC[C@H]1O[C@@H](c2ccc(F)c(Cc3cc4ccccc4s3)c2)[C@H](O)[C@@H](O)[C@@H]1O		Japanese type 1 diabetes patients	oral, 25 mg/day, day 2		hypoglycaemia adverse events	9 % patients
CCOC(=O)N1C[C@@H](c2ccc(C#N)cc2)N[C@@H](c2ccc(N3CCCC3)cc2)C1	shake-flask, LC-HRMS	aqueous buffer	16 h, pH 6.8		solubility	< 4 µM
CCc1cc(C(=O)NC)c2nccc(N3CCc4c(cc(Cn5ccnc5)cc4-c4cn(C)nc4C(F)(F)F)C3=O)c2c1		Sprague Dawley rats	oral, 100 mg/kg once daily, 7 days		serum CK activity	98.5 ± 10.7 U/L
CCN1/C(=C/C(C)=O)Sc2ccc(F)cc21		cynomolgus monkey	oral, 100 mg/kg, 6 h post-dose	baseline: pre-dose	mean blood pressure change	104 ± 8.7%
CCO[C@H]1CCN(Cc2c(OC)cc(C)c3[nH]ccc23)[C@H](c2ccc(C(=O)O)cc2)C1		healthy volunteers, plasma	oral, 200 mg single dose, geometric mean		total Cmax	3490 ng/mL
COc1cccc(OC)c1-c1cc(C(=O)NC2(C(=O)O)C3CC4CC(C3)CC2C4)nn1-c1ccc(C(=O)N(C)CCCN(C)CCCN(C)C(=O)CN2CCN(CC(=O)[O-])CCN(CC(=O)[O-])CCN(CC(=O)[O-])CC2)cc1C(C)C.[177Lu+3] (stereo not drawn)		mouse, HT-29 xenograft	168 h post injection, biodistribution	baseline: tumour over bone uptake	tumour-to-bone ratio	4.6
CNC(=O)c1ccc(-c2cnc3ncc(Cc4ccc5ncccc5c4)n3n2)cc1F		Japanese patients	oral, 400 mg, any grade		Dyspnea dose reduction/interruption	1%
CC(C)=CCC/C(C)=C/C(=O)O.Cc1cc(/C=C/C#N)cc(C)c1Nc1ccnc(Nc2ccc(C#N)cc2)n1		aqueous buffer	pH 1.2		equilibrium solubility	8.22 ± 0.09 µg/mL
O=c1[nH]c(=O)n([C@H]2C[C@H](O)[C@@H](CO)O2)cc1CCC[18F]		male CD-1 nu/nu mice, RG2 tumour, heart	intravenous, dose not given, 2 h		biodistribution	0.28 ± 0.09 %ID/g
N#Cc1cccc(-c2ccc3ncc(-c4cc(F)cc(F)c4)c(N4CCC(N)CC4)c3c2)c1O		healthy male, faeces	oral, 20 mg, 120 h, profiled samples	baseline: dose	total radioactivity recovered	84.3%

SMILES	test	test system	conditions	scale	endpoint	result
CCOC(=O)N1C[C@H](CC(C)C)N[C@H](C2CCOCC2)C1	shake-flask, LC-HRMS	aqueous buffer	16 h, pH 6.8		solubility	> 750 µM
Cc1cc(Nc2ccc(S(F)(F)(F)(F)F)cc2)n2nc(C(C)(F)F)nc2n1		Plasmodium vivax malaria patients	oral, 400 mg		adverse event gastrointestinal disorders	20%
Cc1cc([C@H]2C[C@H]3[C@@H](CF)SC(N)=N[C@@]3(c3ccc(F)cc3F)CO2)on1		129/SVE wild-type mouse, male	subcutaneous, 30 mg/kg, 1 h		CSF concentration	467 nM
O=c1[nH]c(=O)n([C@@H]2O[C@H](CO)[C@@H](O)[C@@H]2F)cc1CCCC[18F]		nude mice, RG2 tumour, muscle	intravenous, dose not given, 2 h		biodistribution	0.21 ± 0.05 %ID/g
CCn1c(=O)c(-c2cc(NC(=O)Nc3ccccc3)c(F)cc2Br)cc2cnc(NC)cc21	measured: lipase increased	healthy human, matched to severe hepatic impairment	oral, 50 mg single dose		participants with grade ≥ 3 TEAE	0%
Cc1ccc([C@@H]2O[C@H](CO)[C@@H](O)[C@H](O)[C@H]2O)cc1Cc1ccc(-c2ccc(F)cc2)s1		Japanese type 2 diabetes patients	25 mg, day 3, 24 h urine collection	baseline: baseline	urinary magnesium excretion change	-11.9 mg
Cc1cc(C)c(CNC(=O)c2cc(Cl)c3c(c2C)O[C@@](C)([C@H]2CC[C@H](N(C)C)CC2)O3)c(=O)[nH]1		human relapsed/refractory NHL	oral, 200 mg once daily, onset day 1 to 14		confusional state grade ≥3	4.2%
CCC[C@@H](C)[C@H]1COC(C)(C)[C@@H](c2ccc(Cl)c(Cl)c2)N1	shake-flask, LC-HRMS	aqueous buffer	16 h, pH 6.8		solubility	< 4 µM
Nc1nc2c(ncn2COCCO)c(=O)[nH]1	shake-flask	methanol-ethanol mixture	298.2 K, mass fraction 0.2		solubility	630 µg/mL
CCC(CC)[C@@H]1COC[C@H](c2ccc(C(C)(C)C)cc2)N1	shake-flask, LC-HRMS	aqueous buffer	16 h, pH 6.8		solubility	< 4 µM
CC(C)(C(=O)N1CCOc2c(C#N)cncc2C1)C(F)F		healthy humans, both sexes, plasma	oral, 30 mg single dose, 3-fold dose increase	baseline: 30 mg over 10 mg	Cmax dose proportionality ratio	3.6
CCCCC[C@H]1CC[C@H](c2ccc(OCC)c(F)c2F)CC1		rat, placenta	5000 ng/mL in perfusate, high dose, mixture of 21 LCMs		placental accumulation	340 ± 466 ng/g
O=C1c2ccccc2C(=O)N1CCCc1nc(-c2cccc([N+](=O)[O-])c2)no1		aqueous buffer	pH 7.4		solubility	< 2.03 µg/mL
CCO[C@H]1CCN(Cc2c(OC)cc(C)c3[nH]ccc23)[C@H](c2ccc(C(=O)O)cc2)C1		PNH patients, active haemolysis	oral, 25 mg, treatment		incidence of pyrexia	14.3%
Cc1ccc(Sc2ccccc2N2CCNCC2)c(C)c1		elderly women	oral, 10 mg single		increased urine β2-microglobulin	12.5%
CC(C)(C)c1ccc([C@H]2COC[C@@H](c3ccc(F)cc3)N2)cc1	shake-flask, LC-HRMS	aqueous buffer	16 h, pH 6.8		solubility	< 4 µM
Cc1cc(C(=O)NC(C)(C)COc2cccc3c2C(N)=NS(=O)(=O)N3)cc(C)n1		Sprague-Dawley rat, plasma	oral, 30 mg/kg, vehicle 1% methylcellulose	baseline: female over male	AUC(last) ratio	1.13
C[C@H](CCC(=O)NCC(=O)O)[C@H]1CC[C@H]2[C@@H]3[C@H](O)C[C@@H]4C[C@H](O[C@@H]5O[C@H](C(=O)O)[C@@H](O)[C@H](O)[C@H]5O)CC[C@]4(C)[C@H]3CC[C@]12C		human, plasma	baseline		Cmin	17.9 ± 3.3 nM
COc1cccc(-c2n[nH]c(SCc3ccccn3)n2)c1OC		Sprague-Dawley rats, both sexes	oral dietary, 100 mg/kg/day, day 90, 1 h		plasma concentration	4540 ng/mL
N#Cc1ccc2c(c1)[C@H]1CCCN(C(=O)c3ccc4[nH]cnc4c3)[C@H]1C2		human, plasma	oral, 20 mg once daily, steady state, median		tmax steady state	40 min
CC(C)NCCCC[C@@H]1NC(=O)[C@H](Cc2ccc(O)cc2)NC(=O)[C@H](Cc2ccccc2)NC(=O)CC[C@H](C(=O)N[C@@H](CCCCNC(C)C)C(=O)N[C@@H](CCCCNC(=O)[C@H](CCC(=O)O)NC(=O)[C@H](CCC(=O)O)NC(=O)[C@H](CCC(=O)O)NC(=O)CN2CCN(CC(=O)O)CCN(CC(=O)O)CCN(CC(=O)O)CC2)C(N)=O)NC(=O)CNC(=O)[C@H](Cc2ccc3ccccc3c2)NC(=O)[C@@H](CCCNC(=N)N)NC1=O [gallium-68 labelled]		mouse with PC-3 xenograft, adrenals	intravenous, 1 h		tissue uptake	0.32 %ID/g
